Results gathered from unrelated publications.

O=C(c1cc(Cl)c(Cl)[nH]1)c1c(O)ccc(Cc2ccc(O)c(C(=O)c3cc(Cl)c(Cl)[nH]3)c2O)c1O
MIC (clinically relevant pathogen panel; broth microdilution; range over all pathogens): ≥ 32 µg/mL

CC1(C)S[C@@H]2[C@H](NC(=O)[C@H](N)c3ccccc3)C(=O)N2[C@H]1C(=O)O
MIC (Pseudomonas aeruginosa; broth microdilution; clinical isolate RKI-No 485/15-1): > 16 µg/mL

CC(C)CC1NC(=O)C(C(=O)NC(C(=O)NC2C(=O)N3C2SC(C)(C)C3C(=O)O)c2ccccc2)=C1O (stereo not shown)
MIC (Escherichia coli; broth microdilution; ATCC 25922 wild type; no clavulanic acid): 6.25 µg/mL

N=C(N)c1ccc(OCc2ccccc2COc2ccc(C(=N)N)cc2)cc1
MIC (Escherichia coli; W3110; in combination, checkerboard, added: rifampicin): 50 µg/mL

CC(C)C[C@@H](NC(=O)[C@H](C)NC(=O)CNC(=O)[C@@H](NC=O)C(C)C)C(=O)N[C@@H](C)C(=O)N[C@@H](C(=O)N[C@H](C(=O)N[C@@H](C(=O)N[C@@H](Cc1c[nH]c2ccccc12)C(=O)N[C@H](CC(C)C)C(=O)N[C@@H](Cc1c[nH]c2ccccc12)C(=O)N[C@H](CC(C)C)C(=O)N[C@@H](Cc1c[nH]c2ccccc12)C(=O)N[C@@H](C(=O)N[C@@H](Cc1c[nH]c2ccccc12)C(=O)NCCO)C(C)C)[C@H](C)O)C(C)C)C(C)C
MIC (Streptococcus agalactiae; broth microdilution; JCM 5671): 8.6 µM

Cc1ccc(CCC(=O)Nc2nnc(S(N)(=O)=O)s2)cc1
MIC (Enterococcus faecium; HM-970): 0.184 µM

CNC(C)C1CCC(N)C(OC2C(N)CC(N)C(OC3OCC(C)(O)C(NC)C3O)C2O)O1 (stereo not shown)
MIC (Pseudomonas aeruginosa; clinical isolate RKI-No_628/16): 4 µg/mL

CC(=O)NC[C@H]1CN(c2ccc(N3CCOCC3)c(F)c2)C(=O)O1
MIC (Enterococcus faecium; ATCC 700221): 2.96 µM

Cc1c(CN(C)C(=O)/C=C/c2cnc3c(c2)CCC(=O)N3)oc2ccccc12
MIC (Escherichia coli; broth microdilution; AR-0162): > 32 µg/mL

N=C(N)c1ccc(OCc2cccc(COc3ccc(C(=N)N)cc3)c2)cc1
MIC (Escherichia coli; BW25113; in combination, lowest-FICI combination, added: vancomycin): 50 µg/mL

For quick reference, copied from above:
CC(=O)NC[C@H]1CN(c2ccc(N3CCOCC3)c(F)c2)C(=O)O1
MIC (Enterococcus faecium; ATCC 700221): 2.96 µM
